Published values pooled from the literature.
Parts stem from different laboratories: compare values within a part only. Changes are numbered by the printed parent chain.

Block 1
Target: Sodium-dependent noradrenaline transporter (SLC6A2, Homo sapiens, UniProt P23975)
Sequence of UniProt P23975 (whole entry, looked up): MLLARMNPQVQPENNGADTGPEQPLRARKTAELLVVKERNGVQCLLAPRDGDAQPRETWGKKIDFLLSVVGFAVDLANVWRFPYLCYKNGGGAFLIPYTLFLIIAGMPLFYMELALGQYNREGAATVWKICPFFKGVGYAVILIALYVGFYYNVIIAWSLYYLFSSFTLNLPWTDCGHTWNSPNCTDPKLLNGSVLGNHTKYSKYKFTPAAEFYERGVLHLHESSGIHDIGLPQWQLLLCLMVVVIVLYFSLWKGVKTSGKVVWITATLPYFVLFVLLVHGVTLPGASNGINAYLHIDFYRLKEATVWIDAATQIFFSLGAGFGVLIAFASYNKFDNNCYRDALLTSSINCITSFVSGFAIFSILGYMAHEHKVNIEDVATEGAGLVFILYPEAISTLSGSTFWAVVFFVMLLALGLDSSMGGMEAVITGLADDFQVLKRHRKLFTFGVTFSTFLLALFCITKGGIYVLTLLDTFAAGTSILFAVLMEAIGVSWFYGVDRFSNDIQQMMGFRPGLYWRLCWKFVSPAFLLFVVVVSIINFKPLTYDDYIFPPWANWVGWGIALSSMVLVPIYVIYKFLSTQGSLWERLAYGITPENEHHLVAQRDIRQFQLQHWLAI
Effect on: cell-free assay
Tested at: 10 µM
The inhibition of `O=S(=O)(NC1CCC(c2cc(F)ccc2F)(S(=O)(=O)c2ccc(Cl)cc2)CC1)C(F)(F)F` (centres unmarked) is reported as 7.49%.
With `Nc1nc(NCc2ccccc2)nc(-c2cccc(CO)c2)n1` the inhibition was 8.6%.
`O=c1nc(-c2ccccn2)sc2ccccc12` gave an inhibition of -0.363%.
For `NC(=O)c1ccc2nc(-c3ccc(C4(N)CCC4)cc3)c(-c3ccccc3)n2n1`, the inhibition was 47.5%.

Block 2
Target: Ras GTPase-activating protein-binding protein 1, C-terminal RGG region (G3BP1, Homo sapiens, UniProt Q13283)
Sequence of UniProt Q13283 (whole entry, looked up): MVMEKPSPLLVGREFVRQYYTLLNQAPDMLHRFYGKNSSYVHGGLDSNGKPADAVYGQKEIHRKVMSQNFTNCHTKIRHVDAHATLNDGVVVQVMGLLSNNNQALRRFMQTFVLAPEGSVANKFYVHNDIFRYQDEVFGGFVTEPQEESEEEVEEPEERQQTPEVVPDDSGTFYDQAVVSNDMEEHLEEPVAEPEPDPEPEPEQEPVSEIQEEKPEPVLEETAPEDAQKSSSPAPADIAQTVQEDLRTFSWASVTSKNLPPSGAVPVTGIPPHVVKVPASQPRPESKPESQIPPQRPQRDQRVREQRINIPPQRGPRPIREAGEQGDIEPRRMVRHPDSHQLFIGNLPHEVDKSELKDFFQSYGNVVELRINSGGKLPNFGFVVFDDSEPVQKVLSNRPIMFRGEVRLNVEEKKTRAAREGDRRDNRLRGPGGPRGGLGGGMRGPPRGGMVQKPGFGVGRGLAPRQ
Technique: RNA Bind-n-Seq
Molecule type: RNA
Sample: in vitro
Tested at: 1 µM
Notes: whole 134-nt RNA, ends assumed
Together with: 150 mM KCl
Reference: input library
Direction: higher = stronger binding
All sequences stand within: GGGAGUUCUACAGUCCGACGAUC … UGGAAUUCUCGGGUGUCAAGG
With `UAACUUUAGAGGAGGAUCUGAUGGAUAUGGCAGUGGACGUGGAUUUGGGGAUGGCUAUAACGGGUAUGGAGGAGGACCUGGAGGUGGCAA` the log2 enrichment was -1.27.
`CAACGUUGAAAUGGAUUGGGUGUUGAAGCAUACUGGUCCAAAUAGUCCUGACACGGCCAAUGAUGGCUUUGUACGGCUUAGAGGACUUCC` gave a log2 enrichment of -1.93.
`GUCCUGUGCUACACAUCGUAUGUACCGAAUCAAAUUUUUUUAAACCCAAAUUUUUAAAAAAGUAUUAUGUUACGCCGUUCGGAUCUGCAC` has a log2 enrichment of -1.44.
The log2 enrichment of `CCUCAAGUCCUGUGCUACACAUCGUAUGUACCGAAUCGGGUUGGUUGGUUGGAAAGUAUUAUGUUACGCCGUUCGGAUCUGCACUUCCAG` is reported as -0.613.
With `UGUGCUACACAUCGUAUGUACCGAAUCGGAAAAAAAGGGGAAAAAAAGGGGAAAAAAAGGGGAAAGUAUUAUGUUACGCCGUUCGGAUCU` the log2 enrichment was -0.822.
The log2 enrichment of `AGUCCUGUGCUACACAUCGUAUGUACCGAAUCGGGUUUUUUUGGGAAAGGGAAAGGGAAAGUAUUAUGUUACGCCGUUCGGAUCUGCACU` is reported as 0.493.
`UGGCCCUGGUGGCAUGCGGGGAGGAAGAGGUGGCCUCAUUGAUCGUGGUGGUCCCGGUGGAAUGUUCAGAGGUGGCCGUGGUGGAGACAG` has a log2 enrichment of 2.06.
`UGGGAGGUGGAUUUUGUUUAUUUUUUUAGCUCAUUCCCAGGGGUGGGAAUUUUUUUUUAAUAUGUGUCAUGAAUAAAGUUGUUUUUGAAA` gave a log2 enrichment of 3.47.

Block 3
Target: TAR DNA-binding protein 43, full length, His tag (TARDBP, Homo sapiens, UniProt Q13148, residues 1-414)
Technique: RNA Bind-n-Seq
Molecule type: RNA
Sample: in vitro
Tested at: 20 nM
Notes: 6-mer, flanks averaged, single round
Together with: 150 mM KCl
Reference: input library
Direction: higher = stronger binding
Under “6-mer enrichment (R)”, `UGGAGU` is recorded as 1.35.
`UCCCAC` — result for “6-mer enrichment (R)”: 0.602.
`CGUUUA`: “6-mer enrichment (R)” 0.582.
Under “6-mer enrichment (R)”, `AACACU` is recorded as 0.605.
`CGCCUA` — result for “6-mer enrichment (R)”: 0.645.
Under “6-mer enrichment (R)”, `CGUUGG` is recorded as 1.16.
`GGGUUC`: “6-mer enrichment (R)” 1.67.
`CAUGGG`: “6-mer enrichment (R)” 2.12.

Block 4
Target: CEP164, C-terminal peptide (human)
Technique: DHFR complementation, deep sequencing
Sample: yeast
Notes: single substitutions, model-inferred values
Reference: wild type
Direction: higher = weaker binding
Starting sequence: PDZK1, PDZ domain 2 (human); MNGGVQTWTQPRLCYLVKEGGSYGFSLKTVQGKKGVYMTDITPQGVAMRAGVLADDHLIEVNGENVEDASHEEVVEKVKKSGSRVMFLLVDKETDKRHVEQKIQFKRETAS; partner HNRVKVYRF
For `S83D`, “binding free energy change” read -0.0486 kcal/mol.
Under “binding free energy change”, `R84P` is recorded as 1.12 kcal/mol.
For `L16Q`, “binding free energy change” read 1.23 kcal/mol.
Under “binding free energy change”, `E60T` is recorded as 0.0719 kcal/mol.
For `Q101C`, “binding free energy change” read -0.0507 kcal/mol.
`Y15G` — result for “binding free energy change”: 0.435 kcal/mol.
`R49G`: “binding free energy change” 0.511 kcal/mol.
`E67D` — result for “binding free energy change”: 0.473 kcal/mol.

Block 5
Target: UDP-N-acetylglucosamine--peptide N-acetylglucosaminyltransferase 110 kDa subunit (OGT, Homo sapiens, UniProt O15294)
Sequence of UniProt O15294 (whole entry, looked up): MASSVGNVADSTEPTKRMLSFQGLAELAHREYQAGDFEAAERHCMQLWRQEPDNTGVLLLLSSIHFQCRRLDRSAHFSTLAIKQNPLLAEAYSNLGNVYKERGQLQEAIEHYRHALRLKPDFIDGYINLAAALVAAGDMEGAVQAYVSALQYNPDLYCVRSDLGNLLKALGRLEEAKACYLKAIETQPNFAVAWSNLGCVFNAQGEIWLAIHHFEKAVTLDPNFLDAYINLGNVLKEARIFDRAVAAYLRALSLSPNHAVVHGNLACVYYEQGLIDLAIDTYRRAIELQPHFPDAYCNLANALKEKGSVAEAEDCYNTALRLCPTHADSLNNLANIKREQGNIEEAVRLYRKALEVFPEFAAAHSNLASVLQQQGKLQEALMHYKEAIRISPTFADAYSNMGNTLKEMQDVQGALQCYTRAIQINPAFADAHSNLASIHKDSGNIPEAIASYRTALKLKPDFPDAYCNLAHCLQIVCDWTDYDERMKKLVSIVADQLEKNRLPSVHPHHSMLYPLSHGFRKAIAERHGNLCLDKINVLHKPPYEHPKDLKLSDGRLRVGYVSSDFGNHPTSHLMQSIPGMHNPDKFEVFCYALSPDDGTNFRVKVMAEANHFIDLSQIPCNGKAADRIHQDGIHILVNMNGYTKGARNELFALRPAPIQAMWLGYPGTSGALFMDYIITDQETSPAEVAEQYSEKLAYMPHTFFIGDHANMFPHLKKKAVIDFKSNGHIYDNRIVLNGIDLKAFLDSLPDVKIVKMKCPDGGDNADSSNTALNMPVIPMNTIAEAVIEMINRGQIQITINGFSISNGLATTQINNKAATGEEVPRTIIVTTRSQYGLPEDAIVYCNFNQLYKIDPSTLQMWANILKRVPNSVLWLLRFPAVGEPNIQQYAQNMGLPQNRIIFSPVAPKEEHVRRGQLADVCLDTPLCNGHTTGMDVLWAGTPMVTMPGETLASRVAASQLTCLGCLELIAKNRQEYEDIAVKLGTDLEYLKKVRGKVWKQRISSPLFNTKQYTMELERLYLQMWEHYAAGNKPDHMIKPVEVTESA
Effect on: binding
Technique: phage display NGS
Molecule type: peptide
Tested at: concentration not given
Notes: normalized abundance
Reference: input library
Under “enrichment fold change”, `TWRVHYPFHTHNYEI` is recorded as 13.
For `TWRVPHLPPRYHEEV`, “enrichment fold change” read 6.56.
Under “enrichment fold change”, `QAHRWPFHFKQHSFW` is recorded as 11.7.

Block 6
Target: CCND1, cyclin fold, Cln2 fusion (human)
Technique: yeast growth competition, sequencing
Sample: yeast
Notes: strong parent motif
Reference: not given
Direction: higher = stronger binding
Starting sequence: viral docking peptide; YKVKRRLVFGADD
`V8W`: “normalised enrichment score” 1.04.
`L7D`: “normalised enrichment score” -0.118.
Under “normalised enrichment score”, `K2T` is recorded as 2.87.
`D12P` — result for “normalised enrichment score”: 0.934.
`R6A` — result for “normalised enrichment score”: 1.07.
`F9C` — result for “normalised enrichment score”: 0.199.
`R5K` — result for “normalised enrichment score”: 0.759.
For `R5I`, “normalised enrichment score” read 0.195.
`A11T`: “normalised enrichment score” 2.42.
`R5H` — result for “normalised enrichment score”: 0.0596.
`K2G` — result for “normalised enrichment score”: 1.87.
`R5S` — result for “normalised enrichment score”: 0.0515.
Under “normalised enrichment score”, `A11N` is recorded as 2.74.
`V3I` — result for “normalised enrichment score”: 1.77.
`G10V` — result for “normalised enrichment score”: 1.34.
Under “normalised enrichment score”, `A11P` is recorded as 3.16.
`R6K` — result for “normalised enrichment score”: 2.92.
Under “normalised enrichment score”, `L7Q` is recorded as -0.407.
`V3T` — result for “normalised enrichment score”: 1.65.
Under “normalised enrichment score”, `V8M` is recorded as 1.33.
`A11M` — result for “normalised enrichment score”: 1.9.
Under “normalised enrichment score”, `F9E` is recorded as -0.109.
Under “normalised enrichment score”, `L7W` is recorded as 0.379.
`V3W` — result for “normalised enrichment score”: -0.0921.
`R5W` — result for “normalised enrichment score”: 0.595.

Excerpt of the above (block 1):
The inhibition of `O=S(=O)(NC1CCC(c2cc(F)ccc2F)(S(=O)(=O)c2ccc(Cl)cc2)CC1)C(F)(F)F` (centres unmarked) is reported as 7.49%.
`O=c1nc(-c2ccccn2)sc2ccccc12` gave an inhibition of -0.363%.
For `NC(=O)c1ccc2nc(-c3ccc(C4(N)CCC4)cc3)c(-c3ccccc3)n2n1`, the inhibition was 47.5%.
With `Nc1nc(NCc2ccccc2)nc(-c2cccc(CO)c2)n1` the inhibition was 8.6%.
